Measurements pooled from the literature.
Every numbered part comes from another study and shows a few of its results, in no order.

Block 1
Target: Ras GTPase-activating protein-binding protein 1, RRM domain (G3BP1, Homo sapiens, UniProt Q13283)
UniProt Q13283, sequence (whole entry, looked up): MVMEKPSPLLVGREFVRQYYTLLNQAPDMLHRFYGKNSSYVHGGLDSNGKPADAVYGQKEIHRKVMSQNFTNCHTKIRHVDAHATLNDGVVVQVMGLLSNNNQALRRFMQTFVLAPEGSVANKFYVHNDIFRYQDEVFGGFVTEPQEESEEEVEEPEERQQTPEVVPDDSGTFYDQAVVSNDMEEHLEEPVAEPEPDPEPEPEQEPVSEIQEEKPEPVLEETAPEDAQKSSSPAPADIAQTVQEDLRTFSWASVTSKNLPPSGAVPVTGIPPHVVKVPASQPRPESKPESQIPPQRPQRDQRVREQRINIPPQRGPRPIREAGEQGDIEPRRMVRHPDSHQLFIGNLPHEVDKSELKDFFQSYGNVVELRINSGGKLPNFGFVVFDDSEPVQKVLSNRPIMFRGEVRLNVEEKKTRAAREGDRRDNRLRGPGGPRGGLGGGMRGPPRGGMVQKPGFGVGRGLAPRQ
Method: RNA Bind-n-Seq
Form: RNA
Sample: in vitro
Concentration: 1 µM
Setting: whole 134-nt RNA, ends assumed
With: 150 mM KCl
Baseline: input library
Reading: higher = stronger binding
Endpoint: log2 enrichment
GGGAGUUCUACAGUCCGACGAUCGCAGGAAGUAAAAACAAAAAAAAAUGCUUCGGAUAGUGGCAGGGGUGGGGGUUGCUAAGGAAAGGGUGGGAUGGGAGUGGGUAAAGAGUUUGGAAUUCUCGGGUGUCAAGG: 1.28
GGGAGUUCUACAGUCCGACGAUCGUCCUGUGCUACACAUCGUAUGUACCGAAUCGGGGCCCCCGGCCCCCGGGGCCCCCGGGAAAGUAUUAUGUUACGCCGUUCGGAUCUGCAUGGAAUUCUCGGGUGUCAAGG: -0.808
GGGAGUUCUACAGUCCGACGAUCUAACUUUAGAGGAGGAUCUGAUGGAUAUGGCAGUGGACGGGGAUUUGGGGAUGGCUAUAAUGGGUAUGGAGGAGGACCUGGAGGUGGCAAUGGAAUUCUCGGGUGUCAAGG: -0.513
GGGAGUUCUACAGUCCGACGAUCCACAGACAACAGGCACCCACACAGACACAGAGGGAAGGGGUUGGGAUGGGGACAGGGUGCACAGCAGGGCGGGGUAGGACCCCAGCCCCUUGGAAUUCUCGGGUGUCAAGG: -0.0453
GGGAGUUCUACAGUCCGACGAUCACCAUGCAGGUGGGCAUCUCUGGGAAGUGGGGCAAGGGGGGGAUAGGGAGGGGGGUAACACUUUGGGAACAGGUGGUCCCAGGUCGUUUCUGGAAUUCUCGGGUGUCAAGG: -0.351
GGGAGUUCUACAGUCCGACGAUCUCAAGUCCUGUGCUACACAUCGUAUGUACCGAAUCGGGAAAGGGAGGGUUUGGGAAAGUAUUAUGUUACGCCGUUCGGAUCUGCACUUCCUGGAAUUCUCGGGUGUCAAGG: 0.687
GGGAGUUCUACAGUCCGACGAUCGUCCUGUGCUACACAUCGUAUGUACCGAAUCAAAUUUAAAUUUUUUUAAACCCCCAAAAAAGUAUUAUGUUACGCCGUUCGGAUCUGCACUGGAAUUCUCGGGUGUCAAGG: -1.5
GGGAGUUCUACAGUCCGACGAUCUAACUUUAGAGGAGGAUCUGAUGGAUAUGGCAGUAGACGUGGAUUUGGGGAUGGCUAUAAUGGGUAUGGAGGAGGACCUGGAGGUGGCAAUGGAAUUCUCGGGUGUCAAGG: -0.922
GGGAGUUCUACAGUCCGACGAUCGUCCUGUGCUACACAUCGUAUGUACCGAAUCGGAAAAAGGGGAAAAAGGAAAAAGGGGAAAGUAUUAUGUUACGCCGUUCGGAUCUGCACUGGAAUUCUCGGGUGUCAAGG: -0.0435

Block 2
Target: Sal-like protein 4, full length isoform A (SALL4, Homo sapiens, UniProt Q9UJQ4, residues 1-1053)
UniProt Q9UJQ4, sequence (whole entry, looked up): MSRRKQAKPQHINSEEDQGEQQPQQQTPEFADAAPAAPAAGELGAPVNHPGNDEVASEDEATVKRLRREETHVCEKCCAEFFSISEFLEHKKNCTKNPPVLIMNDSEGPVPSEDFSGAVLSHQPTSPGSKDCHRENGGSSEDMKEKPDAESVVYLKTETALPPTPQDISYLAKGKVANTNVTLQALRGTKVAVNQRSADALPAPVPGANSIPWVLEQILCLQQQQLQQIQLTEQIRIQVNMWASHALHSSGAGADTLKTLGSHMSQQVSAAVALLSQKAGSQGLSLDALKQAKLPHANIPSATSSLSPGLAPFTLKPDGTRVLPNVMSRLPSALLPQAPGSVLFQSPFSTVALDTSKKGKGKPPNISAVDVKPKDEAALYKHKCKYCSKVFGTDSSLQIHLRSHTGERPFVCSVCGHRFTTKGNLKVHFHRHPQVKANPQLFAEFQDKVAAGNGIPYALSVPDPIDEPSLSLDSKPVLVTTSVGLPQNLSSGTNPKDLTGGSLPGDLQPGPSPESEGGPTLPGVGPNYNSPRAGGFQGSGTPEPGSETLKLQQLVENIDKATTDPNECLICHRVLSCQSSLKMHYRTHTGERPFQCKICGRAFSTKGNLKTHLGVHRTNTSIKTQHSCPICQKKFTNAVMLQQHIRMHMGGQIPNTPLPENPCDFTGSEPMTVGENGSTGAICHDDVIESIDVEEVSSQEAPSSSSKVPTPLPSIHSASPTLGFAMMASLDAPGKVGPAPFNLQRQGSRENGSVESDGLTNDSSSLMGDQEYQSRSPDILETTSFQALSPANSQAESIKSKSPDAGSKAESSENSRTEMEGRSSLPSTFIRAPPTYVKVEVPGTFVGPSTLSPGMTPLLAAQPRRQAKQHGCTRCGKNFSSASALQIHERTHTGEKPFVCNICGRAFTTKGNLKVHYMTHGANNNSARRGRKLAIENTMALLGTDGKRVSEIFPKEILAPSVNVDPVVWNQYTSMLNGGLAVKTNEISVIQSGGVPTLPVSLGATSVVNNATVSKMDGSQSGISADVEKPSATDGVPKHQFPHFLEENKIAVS
Method: universal PBM
Form: double-stranded DNA, one strand shown
Sample: in vitro
Concentration: 600 nM
Setting: 8-mer, flanks averaged, mean of replicates
Reading: higher = stronger binding
Endpoint: E-score
CTGGTCAA: -0.0904
CGCAGCAC: -0.239
TTCATGAA: 0.181
ACCTCTGC: -0.146
GCGATCTA: -0.0583
GACCGAGA: -0.072
ATCGTAGC: 0.0551
CCGGGGCA: -0.3
AGACCCGC: -0.271
ATTTAATC: 0.288
AGTAGAAA: 0.176
AGCGCACT: -0.241
AGGGGTCC: -0.39
TATTAAGA: 0.297
CCTTTAAG: -0.0576
GGCGACAA: -0.183
ACCGGCAA: -0.329
AGTTATTG: 0.296
ATGACTCC: -0.0968

Block 3
Target: RNA binding protein fox-1 homolog 2, RRM domain, GST-SBP tag (RBFOX2, Homo sapiens, UniProt O43251-10, residues 100-194)
Method: RNA Bind-n-Seq
Form: RNA
Sample: in vitro
Concentration: 365 nM
Setting: natural RNA segment, single round, ends assumed
Baseline: no-protein control
Reading: higher = stronger binding
Endpoint: RBNS enrichment (R)
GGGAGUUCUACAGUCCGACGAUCUUUCUGACAGGCGGGUGCCAGUCUGCACUGCCCGCAGUGAGUGCAGGUUCUGUUUUUGAGUUUGGUAGUUUGCAAAGUGAGUACACUGAAGAAACGUUAGUUAGUGGGGCUGGAAUUCUCGGGUGCCAA: 0.893
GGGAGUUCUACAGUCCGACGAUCUCCUCCUUCCGGGGAAGGAUUUUGCAGUUCUUUGGCUGAAAGGAAGCUGUGCGUGUGUGUGUGUGUAUGUGUGUGUGUGUAUGUGUAUCUCACACUCAUGCAUUGUCCUCUGGAAUUCUCGGGUGCCAA: 2.31
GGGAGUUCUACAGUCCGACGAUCAAUAUUAAUAUCUACCAACACAUAGACUUCCUAAAAUCGAUAUAUUGCUUGAAUCACACUUUUACUGUGGCUGAAUUUUUUGUGCCUAGUUAUAAAAAAGACACUUCGAAUGGAAUUCUCGGGUGCCAA: 1.49
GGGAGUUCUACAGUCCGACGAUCCUACUUGGUACAAUAAUUAUUGUAAUUAAGAGAUGUAGCCUUUAUUAAAAUUUUAUAUUUUUCAAAAUGUCAGCCUCAUCUUUGGAUCCCGCAGGGUGGGAGUGGGACCAUGGAAUUCUCGGGUGCCAA: 0.489
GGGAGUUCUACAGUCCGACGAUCUCCACCCCCUGAAUGGGUGUGGCUUGUGGCCAUAUUGACAGACCAAUCUAUGGGACUAGGGGGAUUGGCAUCAAGUUGACACCCUUGAACCUGCUAUGGCCUUCAGCAGUUGGAAUUCUCGGGUGCCAA: 0.717
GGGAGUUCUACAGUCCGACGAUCGCCCUGCCUCUAUGCACGCCCCCGGCAAAGGGCUUGUCAGUAGGUCCCCCUCAACUCCAUACUCAACAGGGAUGCACAGGAUUGCUAACAGAGGGCGGGGCACACCUCAGUGGAAUUCUCGGGUGCCAA: 10.1
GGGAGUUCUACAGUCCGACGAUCUUGGGAUCUCUGCUGUGCCCUUCUCGGGCUUCCAGACCAGGUGUAGCAAAUGAAAAAGUGCAGUUAAUUCAAGAACAGGAAUCCCUGUGUCCUUGCUGGGAUUUCCUUUUUGGAAUUCUCGGGUGCCAA: 0.498
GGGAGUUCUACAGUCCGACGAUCAAAGUAGGACAUGUGCAGUCCCACCUGCAUCCAGUGUGGCUCUCUCCAUGGAGACUUGCUCUUCUUCUGCCCUGGACAUGUGGGGAGCUCCCGCUUCCACCCCCACUGUCUGGAAUUCUCGGGUGCCAA: 0.413

Block 4
Target: RING finger protein unkempt homolog, zinc fingers 1-6, GST-SBP tag (UNK, Homo sapiens, UniProt Q9C0B0, residues 30-357)
Method: RNA Bind-n-Seq
Form: RNA
Sample: in vitro
Concentration: not given
Setting: RNA with constant flanks, human and mouse sites, ends assumed
Baseline: input RNA pool
Reading: higher = stronger binding
Endpoint: bound/input enrichment
Construct (chain): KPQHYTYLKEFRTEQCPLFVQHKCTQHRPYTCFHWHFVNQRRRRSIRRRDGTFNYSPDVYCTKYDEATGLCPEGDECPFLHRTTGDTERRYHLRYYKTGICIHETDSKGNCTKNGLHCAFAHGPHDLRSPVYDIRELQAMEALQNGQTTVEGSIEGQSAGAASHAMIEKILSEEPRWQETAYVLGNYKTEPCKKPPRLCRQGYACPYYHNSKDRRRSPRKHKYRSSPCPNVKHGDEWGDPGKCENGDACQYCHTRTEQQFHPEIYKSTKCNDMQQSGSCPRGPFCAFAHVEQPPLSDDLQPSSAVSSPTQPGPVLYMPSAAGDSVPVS
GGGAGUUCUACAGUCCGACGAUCGCAAAGCGGUGCACUCGGGCUCCACGCGCGCCCUGCGAGGUGGGCGCUGCGUUUUCAUUUCACGGGUGAGGAGACUUAGAGAGACGAAGCCACUUGUCCAAGGUCACGCCGCUGGUGAGUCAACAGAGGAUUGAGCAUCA: 0.193 ratio
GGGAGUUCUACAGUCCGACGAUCAUCAUUGAAGCAUUCUAUGGAGGCUCCCAUAAACAGCUGGUGGAUCUUCUUCAAGAAGAGUUAGGAGACUGUGUCGUUUAUACCCUUCCUGCAAAGAAAUGGCAUUGGAGAGCCCGGACACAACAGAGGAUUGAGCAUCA: 0.316 ratio
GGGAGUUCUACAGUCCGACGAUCCUGGAAGGUUGUUGGCGCACGCGAUUGAAGCGGCGCACUCGGAGUAAACGCGGCUGGCGGUAGUACGUGUGUCUUUUUGCUGAGGGCAGUUAUGUUUCUCCAAUAUUACCUCAACGAGCACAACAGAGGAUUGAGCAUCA: 0.22 ratio
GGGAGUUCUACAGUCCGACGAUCGCUGCAAAUUCCUGUGUAGUGGCAGGCCCAAGGCCUUCCCAGGGGAACCAUAGGUGGUGGUAGGUGGGACAUGUGGCCACUUGUUUUGCUUUAAAUACCUCAGUCCUUAUUCUGACAGGACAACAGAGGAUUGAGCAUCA: 0.0752 ratio
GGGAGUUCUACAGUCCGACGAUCGUGAAGAACACCAUCUACUGCAACGUGGAGCCAUCGGAAUCAAAUAUGCGCUGGGCACCUGAGUUCAUGAUCGACACUCUAGAGAACCCUGCAGCUCACACCUUCACCUACACGGGGCUACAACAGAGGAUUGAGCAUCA: 0.131 ratio
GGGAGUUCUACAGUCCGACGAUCAGGUUGGUGUGUGUGUGAGAAUGCCAACAGACACUGAUGAGUCAGGGUAACGUCUUUUCUGUAAAUAUAUAAGUUUAGGCACUGACAUAAACUGUUCCAUCUAAUUGAUUUUUUCUCCUCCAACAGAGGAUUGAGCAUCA: 0.213 ratio
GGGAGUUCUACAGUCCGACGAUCGGACUGGUUAUGACAGAGGCACAUCUUCCCAGUCAGACUUUGGAACAGGGCCUUGAUGUUUUAGAAAUUAUGAGAAACAUUCAUAUAUUUGUGUCCCGAUACCUCUAUAAUCUCAACAAUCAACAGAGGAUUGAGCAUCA: 0.425 ratio
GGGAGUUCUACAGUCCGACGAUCCAGCAGAGGUUGAUCUUUGCUGGGAAACAGCUGGAAGAUGGACGCACCCUGUCUGACUACAACAUCCAGAAAGAGUCCACUCUGCACUUGGUCCUGCGCUUGAGGGGGGGUGUCUAAGUUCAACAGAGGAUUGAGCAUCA: 0.108 ratio

Some of these lines once more (block 1):
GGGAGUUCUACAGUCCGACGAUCGUCCUGUGCUACACAUCGUAUGUACCGAAUCGGGGCCCCCGGCCCCCGGGGCCCCCGGGAAAGUAUUAUGUUACGCCGUUCGGAUCUGCAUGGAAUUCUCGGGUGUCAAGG: -0.808
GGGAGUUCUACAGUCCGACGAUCUAACUUUAGAGGAGGAUCUGAUGGAUAUGGCAGUGGACGGGGAUUUGGGGAUGGCUAUAAUGGGUAUGGAGGAGGACCUGGAGGUGGCAAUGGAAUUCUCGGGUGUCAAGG: -0.513
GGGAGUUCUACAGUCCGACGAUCCACAGACAACAGGCACCCACACAGACACAGAGGGAAGGGGUUGGGAUGGGGACAGGGUGCACAGCAGGGCGGGGUAGGACCCCAGCCCCUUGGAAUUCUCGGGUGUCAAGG: -0.0453
